Measurements of several laboratories.
Numbered parts are unrelated; each lists some results of a single study. Changes are numbered by the printed parent chain.

Study 1
Target: ABI1, truncated, D143A, DHFR fusion (Arabidopsis thaliana)
Technique: DHFR PCA, deep sequencing
Sample: yeast
Notes: methotrexate growth selection, single substitutions
Added: (+)-ABA 0.11 µM
Relative to: wild-type fitted maximum
Reading: higher = stronger binding
Starting sequence: PYL1, truncated, DHFR fusion (Arabidopsis thaliana); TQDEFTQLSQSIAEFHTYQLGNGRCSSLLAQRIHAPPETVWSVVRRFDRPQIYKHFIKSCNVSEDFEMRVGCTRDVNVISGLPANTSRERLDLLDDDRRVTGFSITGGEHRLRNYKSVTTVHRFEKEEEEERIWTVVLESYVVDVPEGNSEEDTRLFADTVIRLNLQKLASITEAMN; partner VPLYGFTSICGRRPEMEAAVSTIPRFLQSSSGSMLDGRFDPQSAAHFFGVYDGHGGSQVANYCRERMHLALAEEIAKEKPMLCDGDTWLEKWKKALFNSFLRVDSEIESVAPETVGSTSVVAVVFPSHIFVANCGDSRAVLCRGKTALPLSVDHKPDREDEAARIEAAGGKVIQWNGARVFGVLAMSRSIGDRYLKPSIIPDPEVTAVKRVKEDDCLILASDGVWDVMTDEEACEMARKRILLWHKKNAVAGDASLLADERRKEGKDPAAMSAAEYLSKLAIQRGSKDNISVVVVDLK
Variant | relative binding score [%]
D48M | -1.76
A30Y | 16.3
P50R | -0.933
D144I | -18.2
T86A | 9.01
D159V | 3.37
T17K | 10.6
M68F | 6.47
S59I | 3.23
V118E | -2.26
S80H | 31
T173G | -1.25
I12C | -0.935
E14W | -1.5
D144Q | -0.304

Study 2
Target: Centromere-binding protein 1, full length, N-terminal tag (CBF1, Saccharomyces cerevisiae, UniProt P17106, residues 1-351)
Chain of UniProt P17106 (whole entry, looked up): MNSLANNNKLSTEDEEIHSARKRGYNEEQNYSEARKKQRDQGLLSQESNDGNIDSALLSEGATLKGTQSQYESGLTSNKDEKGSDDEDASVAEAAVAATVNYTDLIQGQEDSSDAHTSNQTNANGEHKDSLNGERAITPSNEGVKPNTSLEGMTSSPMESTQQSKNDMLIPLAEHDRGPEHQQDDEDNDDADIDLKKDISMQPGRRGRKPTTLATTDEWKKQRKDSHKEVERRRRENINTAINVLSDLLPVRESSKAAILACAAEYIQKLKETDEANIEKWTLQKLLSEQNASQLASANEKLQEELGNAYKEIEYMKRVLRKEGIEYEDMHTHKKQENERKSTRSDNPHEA
Technique: protein-binding microarray
Molecule type: double-stranded DNA, one strand shown
Sample: in vitro
Concentration: 0.8 µM
Notes: whole 60-bp probe, no competitor
Reading: higher = stronger binding
All sequences stand within: … GTCTTGATTCGCTTGACGCTGCTG
Oligonucleotide | fluorescence intensity [a.u.]
CTATCAATTATTCATCACCAATATAGACTAATGTTC | 564
GAATTGAAAACGGGACACGTTATAACTACTTTCTAG | 558
CTAAATCTCATTTTTTTCGTGATTATTAATTTTTTC | 536
TGTACGAAGCTATATCACCAGCTTATAGTAGTTAGG | 513
CTATCATGGGCACGTCACCGCACAACAGCCGCCTTC | 554
TGTACGAAGCTATCTGACGTCAATATAGTAGTTAGG | 506
CTACGAACTTCCCATCAGCAGAGCATGCAATTTTTC | 539
CTAACATATATCACAGTCGTGATTGAATTAACATTC | 711
GAAATGAATACCCTAAACGTGATAAGTTTGTGCTAG | 965
GAAATAAAAGTGCCAAGCGTGCTCATTATTGGATAG | 564
CCTAACTACTATACCCACATCACATAGCTTCGTACA | 538
CTAAAGGTACTTTTGCATGTGGGCGTCCACAGGTTC | 550
GAATCTATACAACATCAGTTGCGTATCCGTTAATAG | 483
CTATAAATGTCGCATCATGACTCCCGACAATAATTC | 542
GAAATACCAGAGTTGCACGTTAGGCTGATAAATTAG | 521
TGTACGAAGCTATAACTGGTGGTTATAGTAGTTAGG | 508
CTAATGGAAGTTACAGGTGACATAAAATCTACTTTC | 764
GAAGAAAATGTTGGTGATGCGCTTAGATTAAATTAG | 564

Study 3
Target: RING finger protein unkempt homolog, zinc fingers 1-6, SBP tag (UNK, Homo sapiens, UniProt Q9C0B0, residues 30-357)
Chain of UniProt Q9C0B0 (30-357, looked up): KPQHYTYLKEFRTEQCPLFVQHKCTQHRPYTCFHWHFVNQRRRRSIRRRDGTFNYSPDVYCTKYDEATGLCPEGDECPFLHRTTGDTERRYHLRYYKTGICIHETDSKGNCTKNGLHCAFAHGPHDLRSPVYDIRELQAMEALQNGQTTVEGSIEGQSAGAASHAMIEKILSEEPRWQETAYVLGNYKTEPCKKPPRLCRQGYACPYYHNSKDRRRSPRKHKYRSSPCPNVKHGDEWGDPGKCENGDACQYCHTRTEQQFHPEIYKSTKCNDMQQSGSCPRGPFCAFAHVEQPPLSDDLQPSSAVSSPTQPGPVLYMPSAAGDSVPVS
Technique: RNA Bind-n-Seq
Molecule type: RNA
Sample: in vitro
Concentration: 100 nM
Notes: RNA with constant flanks, vertebrate orthologous sites, ends assumed
Relative to: input RNA pool
Reading: higher = stronger binding
All sequences stand within: GGGAGUUCUACAGUCCGACGAUC … CAACAGAGGAUUGAGCAUCA
Oligonucleotide | bound/input enrichment [ratio]
CUGAAGCUUUGUGUUUGGCUGCACCUGCAUAAGCUGCUACAAAUAGAAUAAAGAAUUUCAUAGCCUGUAUCUAUCAUUUAGAUGCAUGGAAAAUGGGCUUUGCACACCGUGGGUUUGGAG | 2.13
AGAAAAUUUUAACCAAGAAUCAGAAGGUAGAAAUUCAGGACCAUGGUUGUCUUCUUCACUUAGAAAUAGAUGCACACCUUUGUUCUCGAGAAGGAGGCGAGAGGGAAGGGAUGAGUCUUC | 0.762
AAAUUUAUUUUAUGCCAUGGACUCCUUAUCGCACGGACACUUUGAUAGAAUAUGCUUCUCUGGAGGACUUCAAAAAUGGUCGUCAAACAACAACAUACAAACUUCCCAACAGAGUGGAUG | 1.24
UUCAGGCACAACUGACUGGUUCACAGCAUUCCUUACAUAGCUAUCUAUCAAAUGCAAGUGUAGUUACUUUUCAGGAACCAAGCAGGCAGUCAUCUUUAUCCUGUAGCCCCGUCGGAGAGU | 0.705
CUCUUCUCCCCUGACCUGAUUUUAAAGGGCCCCUUUUUUUCUUUUCUUUUUUAGGCAUAUGUAGUAAUAUUAGCAGAAAGAUUUAAUUUGGGCAACUUUGAUUCUUAAAAGAGAAAGCAA | 1.29
CUCAGUCCCCUGGGCCGGGACACUUGUUUUUUAACAUCUUGAAAUUUAACUCUGUGCUUGUAGAAGACUGUAACCUUUUUGUCUUUUUUUUUUUUUUUUUUUUUAAACAAUCUCCACCUC | 2.21
UAUGAUGAUUUUCAUUCUUUUUUUUUUUCCUGAUUUUCAAAGCUCCUCCCCCUUUUUUAGGCAUAUGUAGUAACAUUAGAGUUAAUUUGGACAACUUUGAUUCUAUAAAGAGAAAACAGC | 0.836
UUUACAAGAUUUGGACCUAGAACCAGGAGUUAGCAAAAGUAAAGCAGGCUUGUAAAAUUACAGUCAUAUGCCACUGCACAGCAACAGUACUACCACUAGCAGCUGUAUUUGUAAAGAAAA | 0.746
AGGACCUCCAGUAGGCAAAUUCAGGGGGAGAGAGGCUUCAGGGAAUAUAAACCCAGAUAGCAAUGAUCAUGAAGUAUAACCUUGACAUAACUAAAUGAUUUGGGGGAGUGAUGGCAACUU | 1.27
UAUCCCUAGGAUGAAGCUCUUACAUCAGGUGUCACGAGUCUGGAGAACAGAUGGGUUGAGCAGUUGUGUUUAUAAAUUACUCUCUGUGGAUUAUAAUCCUCUAUAUAUCAACAUCACAGU | 0.382
UAAUUCAAUGGUUGAGGGUUCAGAACUCAAAAAGGUUCGCUCCAACUCUAGAAUUUAUCAUAGGUACUUUUUACUGGAUGCCGACAUGCAGAGCCUAAGGUGGGAGCCAUCUAAGAAGGA | 0.248

Study 4
Organism: Saccharomyces cerevisiae
Read-out: mating pheromone growth arrest
Technique: pooled competitive growth deep sequencing
Molecule type: peptide
Strain: no Cln2 overexpression
Notes: peptide tiling library
Reading: direction not given
Molecule | enrichment score
IQKKLRFEDTLEFVGF | -0.276
CFRCLLFSFSGRSGVE | 0.077
RVSGLLSWTLSRVLWL | -0.682
LKGRRLVFDN | 0.287
SDSTVTKLDFDLEP | 0.235
LAKRALKYTD | -0.0329
RSLKLDGLLEEN | 0.103
VLLKRLQDVVSERANH | -0.209
ALLRRLQDVANDRGSH | 0.233

Study 5
Target: Ras GTPase-activating protein-binding protein 1, full length (G3BP1, Homo sapiens, UniProt Q13283)
Chain of UniProt Q13283 (whole entry, looked up): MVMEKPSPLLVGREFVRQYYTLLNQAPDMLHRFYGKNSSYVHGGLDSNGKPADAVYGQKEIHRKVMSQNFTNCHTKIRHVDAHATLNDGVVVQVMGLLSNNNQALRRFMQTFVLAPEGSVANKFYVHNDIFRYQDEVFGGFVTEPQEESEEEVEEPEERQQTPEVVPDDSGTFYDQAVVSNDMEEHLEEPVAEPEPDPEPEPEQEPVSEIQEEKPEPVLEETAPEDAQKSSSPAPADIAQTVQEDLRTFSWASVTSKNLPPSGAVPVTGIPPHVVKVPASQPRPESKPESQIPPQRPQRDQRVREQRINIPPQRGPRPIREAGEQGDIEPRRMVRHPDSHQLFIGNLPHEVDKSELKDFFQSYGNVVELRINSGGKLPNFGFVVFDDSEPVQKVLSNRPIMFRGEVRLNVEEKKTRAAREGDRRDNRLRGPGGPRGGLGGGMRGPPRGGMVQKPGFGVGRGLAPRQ
Technique: RNA Bind-n-Seq
Molecule type: RNA
Sample: in vitro
Concentration: 200 nM
Notes: whole 134-nt RNA, ends assumed
Added: 150 mM KCl
Relative to: input library
Reading: higher = stronger binding
All sequences stand within: GGGAGUUCUACAGUCCGACGAUC … UGGAAUUCUCGGGUGUCAAGG
Oligonucleotide | log2 enrichment
UGGGAGGUGGAUUUUGUUUAUUUUUUUAGCUCAUUUCCAGGGGUGGGAAUUUUUUUUUAAGAUGUGUCAUGAAUAAAGUUGUUUUUGAAA | 0.458
AAGUCCUGUGCUACACAUCGUAUGUACCGAAUCGGGUUUUUGGGUGGGUUUUUGGGAAAGUAUUAUGUUACGCCGUUCGGAUCUGCACUU | 0.0794
UGGCCCUGGUGGCAUGCAGGGAGGAAGAGGUGGCCUCAUGGAUCGUGGUGGUCCCGGUGGAAUGUUCAGAGGUGGCCGUGGUGGAGACAG | 0.0256
CACAGACAACACGCACCCACACAGACACAGAGGGAAGGGGUUGGGAUGGGGACAAAAUGCACAGCAGGGCGGGGUAGGACCCCAGCCCCU | 1.94
ACCAUGCAGGUGGGCAUCUUUGGGAAGUGGGGCAAAGGGGGGAUAGGGAGGGGGGUAACACUUUGGGAACAGGUGGUCCCAGGUCGUUUC | 0.959
GUCCUGUGCUACACAUCGUAUGUACCGAAUCGGGGAGGGGUUUUUGGGGAAAAAGGGGAAAGUAUUAUGUUACGCCGUUCGGAUCUGCAC | 0.462
CCUCAAGUCCUGUGCUACACAUCGUAUGUACCGAAUCGGUGGAAAAAGGAGGAAAGUAUUAUGUUACGCCGUUCGGAUCUGCACUUCCAG | 0.0821
UCCUGUGCUACACAUCGUAUGUACCGAAUCGGGUUUUUUGGGGUUUUUUGGUUUUUUGGAAAGUAUUAUGUUACGCCGUUCGGAUCUGCA | -0.412
CCUGUGCUACACAUCGUAUGUACCGAAUCGGGCCCCCCGGGGCCCCCCGGCCCCCCGGGGAAAGUAUUAUGUUACGCCGUUCGGAUCUGC | -0.592
GCAGGAAGUAAAAACAAAUGGAAAUGCUUCGGAUAGUGGCAGGGGUGGGGGUUGCUAAGGAAAGGGUGGGAUGGGAGUGGGUAUAGAGUU | 0.838
AGUCCUGUGCUACACAUCGUAUGUACCGAAUCGGGAGGGAAAAAAAGGGUUUUUGGGAAAGUAUUAUGUUACGCCGUUCGGAUCUGCACU | -0.154
GUCCUGUGCUACACAUCGUAUGUACCGAAUCGGGGUGGGGAAAAAAAGGGGUUUGGGGAAAGUAUUAUGUUACGCCGUUCGGAUCUGCAC | 0.322
ACCAUGCAGGUGGGCAUCUUUGGGAAGUGGGGCAAGGGGGGGAUAGGGAGGGGGGUAACACUUUGGGAACAGGUGGAAACAGGUCGUUUC | 0.843
UCCUGUGCUACACAUCGUAUGUACCGAAUCGGGGAAAAAGGGGAAAAAGGGGAAAAAGGAAAGUAUUAUGUUACGCCGUUCGGAUCUGCA | -0.0659

Study 6
Target: Histone acetyltransferase KAT6A, winged helix 1, GST fusion (KAT6A, Homo sapiens, UniProt Q92794, residues 1-85)
Technique: protein binding microarray
Molecule type: double-stranded DNA, one strand shown
Sample: in vitro
Concentration: not given
Notes: 8-mer, flanks averaged, mean of 2 arrays, mostly near background
Relative to: not given
Reading: higher = stronger binding
Target sequence (chain): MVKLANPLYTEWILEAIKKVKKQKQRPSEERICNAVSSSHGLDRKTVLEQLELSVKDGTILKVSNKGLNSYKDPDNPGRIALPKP
Oligonucleotide | E-score
GATCTTCC | -0.024
AGAGTTAT | -0.148
GAAACAGC | -0.17
AGCTTCCG | 0.0623
ATCAGTAC | -0.0604
CTTATGTC | -0.0824
ACTGGCGG | 0.252
AGTAGTCA | -0.136
CCAACGCC | 0.115
GTATAAAC | -0.0419
CGAACATC | 0.0777
AGAAGAAT | -0.173
AGTGGTGA | -0.135
AGATCAAC | -0.193
AGTAGCTC | -0.0359
AGAATCCT | -0.18
GGTTTTCA | -0.0163

Excerpt of the above (study 2):
Oligonucleotide | fluorescence intensity [a.u.]
CTAAAGGTACTTTTGCATGTGGGCGTCCACAGGTTC | 550
CTAAATCTCATTTTTTTCGTGATTATTAATTTTTTC | 536
GAAATACCAGAGTTGCACGTTAGGCTGATAAATTAG | 521
TGTACGAAGCTATCTGACGTCAATATAGTAGTTAGG | 506
CTATAAATGTCGCATCATGACTCCCGACAATAATTC | 542
CTACGAACTTCCCATCAGCAGAGCATGCAATTTTTC | 539
CTAATGGAAGTTACAGGTGACATAAAATCTACTTTC | 764
CTAACATATATCACAGTCGTGATTGAATTAACATTC | 711
GAAGAAAATGTTGGTGATGCGCTTAGATTAAATTAG | 564
